Published values from different studies.
Each numbered part is a random draw from the data of one study; scales do not carry over between parts.

Sample 1 — technique: RNA Bind-n-Seq; molecule type: RNA; matrix: in vitro; concentration: 20 nM; setting: 6-mer, flanks averaged, single round; with: 150 mM KCl; baseline: input library; direction: higher = stronger binding
Target: TAR DNA-binding protein 43, full length, His tag (TARDBP, Homo sapiens, UniProt Q13148, residues 1-414)
| Oligonucleotide | 6-mer enrichment (R) |
| --- | --- |
| GUUAAA | 0.658 |
| UUCGAU | 0.549 |
| AUCAUC | 0.532 |
| CCUACG | 0.681 |
| UCAAGU | 0.636 |
| CUUCAU | 0.548 |
| CUCUCC | 0.574 |
| AACCCG | 0.668 |

Sample 2 — technique: universal PBM; molecule type: double-stranded DNA, one strand shown; matrix: in vitro; concentration: not given; direction: higher = stronger binding
Target: Sal-like protein 4, full length isoform B (SALL4, Homo sapiens, UniProt Q9UJQ4-2, residues 1-616)
Setting: 8-mer, flanks averaged, mean of replicates
| Oligonucleotide | E-score |
| --- | --- |
| ATGGTCAG | 0.184 |
| AATTGCTA | 0.239 |
| CAATCAAG | 0.0203 |
| AGATGCGC | -0.0815 |
| AGGTCCTA | -0.129 |
| ACGACTGA | -0.11 |
| TAATCTCA | 0.17 |
| AGTAGTCG | -0.162 |

Other studies, line by line
| Molecule | target | assay | system | conditions | how to read | endpoint | value |
| --- | --- | --- | --- | --- | --- | --- | --- |
| Cc1cccc(-c2[nH]c(C(C)(C)C)nc2-c2ccc3c(c2)OCO3)n1 | Receptor tyrosine-protein kinase erbB-2 (ERBB2, Homo sapiens, UniProt P04626) | enzyme activity, inhibitor | – | 0.5 µM | baseline: control | remaining activity | 102% |
| PhoQ, residues 284 288 289 292 302 303 MLMVEA | PhoP, residues 12 14 15 18 19 VHSCL (Escherichia coli, UniProt P23836) | Sort-seq, refers to: YFP reporter | E. coli | PhoQ-PhoP variant library, with: 10 µM Mg2+ | baseline: high Mg2+ state, higher = stronger signaling | fold induction | 20.4 |

Repeated from above (sample 2):
| Oligonucleotide | E-score |
| --- | --- |
| AGATGCGC | -0.0815 |
